Measured values from different studies.
Every numbered part comes from another study and shows a few of its results, in no order. Changes are numbered by the printed parent chain.

Sample 1 — method: DHFR PCA, deep sequencing; matrix: yeast; added: (+)-ABA 58 µM; reference: wild-type fitted maximum; direction: higher = stronger binding
Target: ABI1, truncated, D143A, DHFR fusion (Arabidopsis thaliana)
Notes: methotrexate growth selection, single substitutions
Starting sequence: PYL1, truncated, DHFR fusion (Arabidopsis thaliana); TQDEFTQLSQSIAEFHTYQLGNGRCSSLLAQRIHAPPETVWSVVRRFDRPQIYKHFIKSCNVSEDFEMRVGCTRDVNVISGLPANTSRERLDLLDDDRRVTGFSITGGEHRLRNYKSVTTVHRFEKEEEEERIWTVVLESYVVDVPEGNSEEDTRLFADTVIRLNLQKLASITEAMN; partner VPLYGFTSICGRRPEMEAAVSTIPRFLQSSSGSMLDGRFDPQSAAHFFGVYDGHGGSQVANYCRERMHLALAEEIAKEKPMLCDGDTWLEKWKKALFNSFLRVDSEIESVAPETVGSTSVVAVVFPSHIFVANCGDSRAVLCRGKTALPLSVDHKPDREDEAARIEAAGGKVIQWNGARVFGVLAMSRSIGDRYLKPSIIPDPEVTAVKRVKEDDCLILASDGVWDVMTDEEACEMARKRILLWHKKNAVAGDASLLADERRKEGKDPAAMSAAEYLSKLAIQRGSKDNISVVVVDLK
For `V161H`, “relative binding score” read 14.5%.
`E128K`: “relative binding score” 90.2%.
Under “relative binding score”, `R32V` is recorded as 89.3%.
`E14P` — result for “relative binding score”: 7.12%.
Under “relative binding score”, `T120P` is recorded as -4.38%.
For `V118F`, “relative binding score” read 37.7%.
Under “relative binding score”, `P50G` is recorded as -0.921%.
`T73N` — result for “relative binding score”: 70.4%.
For `N22C`, “relative binding score” read 84%.
`Q51Y` — result for “relative binding score”: 36.8%.
For `L94D`, “relative binding score” read 7.29%.
`T1G` — result for “relative binding score”: 85.2%.
For `S171Q`, “relative binding score” read 84.7%.
`A35T`: “relative binding score” 53.5%.
`T106L` — result for “relative binding score”: 99%.

Sample 2 — method: RNA Bind-n-Seq; molecule type: RNA; matrix: in vitro; tested at: not given; notes: RNA with constant flanks, ends assumed; reference: input RNA pool; direction: higher = stronger binding
Target: RING finger protein unkempt homolog, zinc fingers 1-6, GST-SBP tag (UNK, Homo sapiens, UniProt Q9C0B0, residues 30-357)
UniProt Q9C0B0, sequence (30-357, looked up): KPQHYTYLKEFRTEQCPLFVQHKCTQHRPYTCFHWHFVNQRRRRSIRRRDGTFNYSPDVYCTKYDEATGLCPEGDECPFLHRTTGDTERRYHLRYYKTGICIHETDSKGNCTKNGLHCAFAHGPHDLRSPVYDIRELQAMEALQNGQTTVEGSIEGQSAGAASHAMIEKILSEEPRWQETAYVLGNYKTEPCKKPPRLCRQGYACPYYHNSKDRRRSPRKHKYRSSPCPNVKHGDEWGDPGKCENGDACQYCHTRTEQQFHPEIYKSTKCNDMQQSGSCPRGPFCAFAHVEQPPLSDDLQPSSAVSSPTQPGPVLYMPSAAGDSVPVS
Constant ends, left off below: GGGAGUUCUACAGUCCGACGAUC … CAACAGAGGAUUGAGCAUCA
For `UCUCGGGGUUUCAAAACGUUGAAAUCAAGGACACGACGUUUGCAGUCUACCUCUGAAAGAUCCGCCGAAGCACAGAAUAUAGCACCAUCAUUUGUGAAGGGGUUUCUUUUGCGGGACAGA`, the bound/input enrichment was 0.173 ratio.
`GAGGUGGUGCCUAUUCAUCAGCAGGACAUUCCUGUUGAUAAUCCCAUCGAGAGCAAUAAUAUCUUCCCCGUGGCCCCAUUGAUCAUCUGCCACGUGAUUGACAAGCGUAGCCCCCUGUAU` has a bound/input enrichment of 0.15 ratio.
For `CGAAUGUUUGCUUACUUCCGACGCAACGCGGCCACGUGGAAGAAUGCAGUGCGUCAUAAUCUCCGUCUUCACAAGUGUUUUGUGCGAGUAGAAAACGUUAAAGGGGCAGUAUGGACAGUG`, the bound/input enrichment was 0.223 ratio.
For `CCUUUAUAUCCUCAGCCCAAGAGACGGUGUUCCCCUGCGACCUCCAAGCCUGGAAUUGUGCACCGCCUGGGUCUUGUAUCUUUGUAUAACGGAUGUUAUUUGUACGAAGGGCAGUUCGUA`, the bound/input enrichment was 0.304 ratio.
For `CACGCUGGUGCCCCGGAAGACGCCUCGCAAGAGGAGGAAUCUGUUCUCUGGACGAUAUUAAUCCGCAUUUUGAAACUGGUACUUGAAAUUCUCUUUUGAGUCGUUGACCACACUCUGGGA`, the bound/input enrichment was 0.15 ratio.
`CCAGAUGACCGGUCGCAGGGAGCAGCCAUUGGGGGGCGGCCAGGACUGCCUGGCCCAGAGCACCGCCCUGGCACAGAAUCUCAGCCUUCGUCGCCUUCUCCAACCCCAUCACCACCCCCA` has a bound/input enrichment of 0.173 ratio.
`UGCUUUUCUUUCUAAGCAGAGUAUGGUUGUCAUCUUUCUGGACAGAUGAAUUGAUAGGAGACCGAAGGUCGAAAGAUGGCUGUUAUACCAGCCUAAGUUCAGAACACCAGCAUAUCAAGG` gave a bound/input enrichment of 0.161 ratio.
With `AUGAAAAGACUAAUUGGAUGAAUACUAUCUUUCUAAUGAAUUUGUGAUUAAAUAUAUAACCGUUGUUGAAAAUGAGUAACUUUGCGUUCUCCCCCUAGGUUGUUCUUAGAUGCCUGGCUU` the bound/input enrichment was 4.79 ratio.

Sample 3 — method: aptamer microarray, sandwich; molecule type: DNA with 2'F-ANA; matrix: in vitro; tested at: 200 nM; added: Cy3 exosite-II aptamer, 400 nM; direction: higher = stronger binding; sequence: GGTTGGTGTGGTTGG
Target: Prothrombin, mature alpha-thrombin (F2, Homo sapiens, UniProt P00734)
Notes: whole 15-mer aptamer, many near background
`2'F-ANA at 4 5 10 11 12 13 14` — result for “mean fluorescence intensity”: 45.5 a.u.
`2'F-ANA at 4 7 8 12 14 15` — result for “mean fluorescence intensity”: 190 a.u.
`2'F-ANA at 3 4 7 8 13 15`: “mean fluorescence intensity” 559 a.u.
For `2'F-ANA at 2 3 5 6 9 10 12 14 15`, “mean fluorescence intensity” read 51.4 a.u.
`2'F-ANA at 1 4 5 11 12 13 14 15` — result for “mean fluorescence intensity”: 101 a.u.
Under “mean fluorescence intensity”, `2'F-ANA at 1 8 9 11 13 14` is recorded as 52.9 a.u.
`2'F-ANA at 1 4 6 8 12 15` — result for “mean fluorescence intensity”: 269 a.u.
Under “mean fluorescence intensity”, `2'F-ANA at 2 7 8 9 10 13 14` is recorded as 109 a.u.
For `2'F-ANA at 2 4 6 7 9 11 12 13 14`, “mean fluorescence intensity” read 82.8 a.u.
For `2'F-ANA at 4 5 7 8 9 15`, “mean fluorescence intensity” read 73.6 a.u.
`2'F-ANA at 1 4 10 11 13 14 15` — result for “mean fluorescence intensity”: 44.5 a.u.
Under “mean fluorescence intensity”, `2'F-ANA at 1 3 7 9 10 11 12 13 14` is recorded as 60.6 a.u.
Under “mean fluorescence intensity”, `2'F-ANA at 6 8 9 10 11` is recorded as 137 a.u.
`2'F-ANA at 5 6 9 11` — result for “mean fluorescence intensity”: 61.1 a.u.
`2'F-ANA at 1 2 8 9 11 13 15`: “mean fluorescence intensity” 134 a.u.
For `2'F-ANA at 4 6 7 13 14 15`, “mean fluorescence intensity” read 81.5 a.u.
Under “mean fluorescence intensity”, `2'F-ANA at 3 5 7 8 12 15` is recorded as 289 a.u.
`2'F-ANA at 3 4 8` — result for “mean fluorescence intensity”: 894 a.u.
For `2'F-ANA at 1 3 4 5 6 8 11 12`, “mean fluorescence intensity” read 103 a.u.
For `2'F-ANA at 1 3 5 6 7 8 9 12 13 15`, “mean fluorescence intensity” read 106 a.u.
Under “mean fluorescence intensity”, `2'F-ANA at 1 2 4 5 8 10 11` is recorded as 45.9 a.u.
Under “mean fluorescence intensity”, `2'F-ANA at 1 6 7 9 11 12 13 14` is recorded as 69.2 a.u.
`2'F-ANA at 1 4 6 8 10 12 15`: “mean fluorescence intensity” 56.8 a.u.
Under “mean fluorescence intensity”, `2'F-ANA at 3 8 9 10 11 12 13 15` is recorded as 435 a.u.
For `2'F-ANA at 2 4 6 11 15`, “mean fluorescence intensity” read 202 a.u.

Sample 4 — target: CCNA2, cyclin fold, Cln2 fusion (human); method: yeast growth competition, sequencing; matrix: yeast; notes: strong parent motif; reference: not given; direction: higher = stronger binding
Starting sequence: MICAL3 docking peptide (human); LQLRRQLSFSEDS; partner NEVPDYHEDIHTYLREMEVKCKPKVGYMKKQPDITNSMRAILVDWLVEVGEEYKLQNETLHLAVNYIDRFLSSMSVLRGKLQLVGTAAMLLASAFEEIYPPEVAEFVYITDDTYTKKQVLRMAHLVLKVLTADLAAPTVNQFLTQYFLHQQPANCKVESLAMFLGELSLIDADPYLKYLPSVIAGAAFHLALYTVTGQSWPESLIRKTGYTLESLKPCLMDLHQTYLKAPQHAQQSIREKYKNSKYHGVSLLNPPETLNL
`E11D` — result for “normalised enrichment score”: 3.68.
Under “normalised enrichment score”, `Q6D` is recorded as 0.119.
`S10C`: “normalised enrichment score” 2.66.
`Q6E` — result for “normalised enrichment score”: 1.72.
`Q2A` — result for “normalised enrichment score”: 3.57.
Under “normalised enrichment score”, `D12P` is recorded as 3.6.
`Q6Y` — result for “normalised enrichment score”: 1.66.
`R4W`: “normalised enrichment score” 1.14.
Under “normalised enrichment score”, `S10R` is recorded as 2.61.
Under “normalised enrichment score”, `Q2D` is recorded as 2.35.
`Q6R` — result for “normalised enrichment score”: 5.54.
For `L7H`, “normalised enrichment score” read 0.301.
`S10D`: “normalised enrichment score” 2.9.
Under “normalised enrichment score”, `Q2E` is recorded as 2.44.
`F9T` — result for “normalised enrichment score”: 0.0655.
For `S10G`, “normalised enrichment score” read 3.76.
Under “normalised enrichment score”, `F9W` is recorded as 1.57.
Under “normalised enrichment score”, `Q2G` is recorded as 3.62.
For `S10L`, “normalised enrichment score” read 2.1.
`R5F`: “normalised enrichment score” 0.421.
Under “normalised enrichment score”, `L7D` is recorded as -0.449.
`L3M` — result for “normalised enrichment score”: 2.79.
`Q2C` — result for “normalised enrichment score”: 3.7.
For `R5S`, “normalised enrichment score” read -0.0847.
Under “normalised enrichment score”, `D12W` is recorded as 2.49.

Some of these lines once more (sample 3):
Under “mean fluorescence intensity”, `2'F-ANA at 1 8 9 11 13 14` is recorded as 52.9 a.u.
`2'F-ANA at 1 4 6 8 12 15` — result for “mean fluorescence intensity”: 269 a.u.
Under “mean fluorescence intensity”, `2'F-ANA at 2 7 8 9 10 13 14` is recorded as 109 a.u.
For `2'F-ANA at 2 4 6 7 9 11 12 13 14`, “mean fluorescence intensity” read 82.8 a.u.
For `2'F-ANA at 4 5 7 8 9 15`, “mean fluorescence intensity” read 73.6 a.u.
`2'F-ANA at 1 4 10 11 13 14 15` — result for “mean fluorescence intensity”: 44.5 a.u.
Under “mean fluorescence intensity”, `2'F-ANA at 1 3 7 9 10 11 12 13 14` is recorded as 60.6 a.u.
Under “mean fluorescence intensity”, `2'F-ANA at 6 8 9 10 11` is recorded as 137 a.u.
`2'F-ANA at 5 6 9 11` — result for “mean fluorescence intensity”: 61.1 a.u.
